Measured values of several laboratories.
Numbers after ± are the reported error.

| SMILES | cell line | test | setting | IC50 [nM] |
| --- | --- | --- | --- | --- |
| NS(=O)(=O)c1ccc(Cc2c(-c3cccc(-c4ccccc4)c3)nn(-c3nc(C(=O)O)cs3)c2C2CC2)c(F)c1 | HEK293T | lactate production | 1 h | 1200 |
| COc1cc2ncnc(Oc3ccc(NC(=O)c4c5n(n(-c6ccc(F)cc6Cl)c4=O)CCCC5)cc3F)c2cc1OC | BaF3 TEL-AXL | cell viability, CCK-8 | 48 h | 4.4 ± 2.2 |
| CCOc1cc(C(C)(C)C)ccc1C1=N[C@H](c2ccc(Cl)cc2)[C@H](c2ccc(Cl)cc2)N1C(=O)N1CCN(CC(=O)NCCOCCOCCOCCNC(=O)CN2CCN(C(=O)N3C(c4ccc(C(C)(C)C)cc4OCC)=N[C@H](c4ccc(Cl)cc4)[C@@H]3c3ccc(Cl)cc3)CC2=O)C(=O)C1 | HCT-116 p53 knock-out | cell growth, CCK-8 |  | > 50000 |
| N[C@@H](c1nc2cc(-c3ccncc3F)sc2c(=O)[nH]1)C1CC1 | COLO 205 | cell growth, MTT |  | 385 ± 19.3 |
| NS(=O)(=O)c1ccc(Cc2c(-c3ccc(F)c(C4CCCCC4)c3)nn(-c3nc(C(=O)O)cs3)c2CC2CC2)cc1F | HEK293T | lactate production | 1 h | 400 |
| COc1cc2ncc(-c3cccc(NC4CCNC4)n3)n2cc1-c1cnn(C)c1 (racemic) | MOLM-14 FLT3 F691L | cell growth |  | 667 |
| CCN1c2ccccc2C(=O)N(C)c2cnc(Nc3ccc(C(=O)N4CCC(N5CCN(C)CC5)CC4)cc3OC)nc21 | 797 NUT midline carcinoma cells | viability, CellTiter-Glo | 3 days | 2620 ± 540 |
| CN1CCN(c2cc(C(=O)Nc3ccc4c(c3)-c3c(c(C(N)=O)nn3-c3ccc(F)cc3)CC4)c(Cl)cn2)CC1 | human PBMC | TNF-α production, MSD | 2 h pretreatment, LPS for 18 h, with: LPS 10 ng/mL | 40 to 70 |
| CC(C)[C@H](N)c1nc2cc(-c3cc[nH]c3)sc2c(=O)[nH]1 | COLO 205 | cell growth, MTT |  | > 10000 |
| Cc1ccc(-n2nc3c(=O)[nH]nc(N)c3c2-c2oc3ccc(C)cc3c2C)cc1 | SNU-16 (FGFR2 amplified) | cell proliferation |  | > 1000 |
| Cc1ccccc1OCCCSCc1nc2ccccc2[nH]1 | SW620-GFP cells | colony formation, clonogenic stemness |  | 12800 |
| CN(C)C(=O)Cn1cc(-c2ccc(-c3cncc4ccncc34)cc2)cn1 | HBL1 | cell growth, viability |  | < 1000 |
| O=C(O)c1cc(N2C(=O)c3ccc4c5c(ccc(c35)C2=O)C(=O)N(c2ccc(O)c(C(=O)O)c2)C4=O)ccc1O | PC-12 | neurite outgrowth | 72 h, with: 500 pM NGF | 11100 |
| NS(=O)(=O)c1ccc(Cc2c(C3CCCC3)nn(-c3nc(C(=O)O)cs3)c2-c2ccccc2)cc1 | HEK293T | lactate production | 1 h | > 50000 |
| Cc1n[nH]c(C)c1CCOC(=O)c1cccc2c1oc(=O)n2C | WI-38 | cytotoxicity |  | > 100000 |
| CC(=NN=c1[nH]c2cc(F)c(F)cc2n1C)c1ccc(F)cn1 | LM2 | viability, MTT | 72 h | 40 |
| Nc1c(Cl)ccc2cccnc12 | HUVEC | cell proliferation, [3H]thymidine incorporation |  | 1660 ± 60 |
| NS(=O)(=O)c1ccc(Cc2c(-c3ccc(F)c(C#CC4CCCC4)c3)nn(-c3nc(C(=O)O)cs3)c2CC2CC2)cc1F | HEK293T | lactate production | 1 h | 500 |

| SMILES | cell line | test | setting | IC50 [nM] |
| --- | --- | --- | --- | --- |
| CC(C)[C@H](N)c1nc2cc(-c3ccncc3)sc2c(=O)[nH]1 | COLO 205 | cell growth, MTT |  | 39.6 ± 1.58 |
| C/C=C/c1cc(-c2nn(-c3nc(C(=O)O)cs3)c(CC3CC3)c2Cc2ccc(S(N)(=O)=O)c(F)c2)ccc1F | HEK293T | lactate production | 1 h | 700 |
| CN1c2ccc(F)cc2C(=O)N2CCc3c([nH]c4ccc(OCc5cccc(C(=O)NO)c5)cc34)C21 (stereo not drawn) | A549 | cell viability, CCK-8 |  | > 20000 |
| Cc1cnc(Nc2ccc(N3CCN(C)CC3)cc2)nc1Nc1cccc(NS(=O)(=O)C(C)(C)C)c1 | MM1.S | cell growth, CellTiter Blue | 72 h | 380 |
| Nc1ccc(Cl)c2cccnc12 | HUVEC | cell viability, calcein-AM |  | 3510 ± 1100 |
| COc1cccc2c1C(=O)N1CCc3c([nH]c4ccccc34)C1N2Cc1ccc(C(=O)NCCCC(=O)NO)cc1 (racemic) | HCT-116 | cell viability, CCK-8 |  | > 10000 |
| COc1ccc(CC(=O)OCc2ccc(-n3cccn3)cc2)cc1F | HS27 | cytotoxicity |  | > 100000 |
| COc1cc(C(=O)N2CCC(N3CCN(C)CC3)CC2)ccc1Nc1ncc2c(n1)N(C1CCC1)c1ccccc1C(=O)N2C | 797 NUT midline carcinoma cells | viability, CellTiter-Glo | 3 days | 116 ± 1 |
| CC(C)[C@H](N)c1nc2cc(-c3c[nH]cn3)sc2c(=O)[nH]1 | COLO 205 | cell growth, MTT |  | > 10000 |
| O=C(O)c1ccc(N2C(=O)c3ccc4c5c(ccc(c35)C2=O)C(=O)N(c2ccc(C(=O)O)c(Br)c2)C4=O)cc1Br | PC-12 | neurite outgrowth | 72 h, with: 500 pM NGF | 15200 |
| CC(C)(N)c1nc2cc(-c3ccnc(F)c3)sc2c(=O)[nH]1 | COLO 205 | cell growth, MTT |  | 1070 ± 75 |
| NS(=O)(=O)c1ccc(Cc2c(-c3ccc(F)c(/C=C/C4CCCC4)c3)nn(-c3nc(C(=O)O)cs3)c2CC2CC2)cc1F | HEK293T | lactate production | 1 h | 100 |
| CC(C)[C@H](N)c1nc2cc(-c3ccncn3)sc2c(=O)[nH]1 | COLO 205 | cell growth, MTT |  | 346 ± 10.4 |
| C=CC(=O)N1CCC(c2cc(Nc3cc4n(n3)CCOC4)c3ncnn3c2)C1 (single isomer, unassigned) | Ramos | calcium flux, FLIPR | 1 h preincubation, with: anti-IgM | > 1000 |
| Cc1ccc2oc(-c3c4c(N)n[nH]c(=O)c4nn3-c3ccc(S(C)(=O)=O)cc3)c(C)c2c1 | SNU-16 (FGFR2 amplified) | cell proliferation |  | > 1000 |
| COc1cc(N)c2ncccc2c1Cl | HUVEC | cell proliferation, [3H]thymidine incorporation |  | > 20000 |
| CC[C@@H](C)[C@H](N)C(=O)N1Cc2ccc(F)cc2C1 | OCI-AML2 | cell viability, CellTiter-Glo |  | 20 |
| O=C(O)CCCN1C(=O)c2ccc3c4c(ccc(c24)C1=O)C(=O)N(CCCC(=O)O)C3=O | PC-12 | neurite outgrowth | 72 h, with: 500 pM NGF | > 100000 |
